Results collected from several papers.
Every numbered part comes from another study and shows a few of its results, in no order.

Sample 1 — Structure (SMILES): O=c1nc(-c2ccccn2)sc2ccccc12; method: competition with immobilised ligand; concentration: 1 µM
It gave 100% for remaining binding (Mitogen-activated protein kinase kinase kinase 12 (MAP3K12, Homo sapiens, UniProt Q12852); binding).
Cyclin-dependent kinase 4, with cyclin D3 (CDK4, Homo sapiens, UniProt P11802); binding — remaining binding: 90%.
The remaining binding was 94% (Rho-associated protein kinase 2 (ROCK2, Homo sapiens, UniProt O75116); binding).
The remaining binding was 96% (Cyclin-dependent kinase 2 (CDK2, Homo sapiens, UniProt P24941); binding).
Tyrosine-protein kinase ABL1, phosphorylated (ABL1, Homo sapiens, UniProt P00519, H396P); binding — remaining binding: 99%.
The remaining binding was 100% (Ribosomal protein S6 kinase alpha-2, C-terminal kinase domain (RPS6KA2, Homo sapiens, UniProt Q15349); binding).
It gave 87% for remaining binding (Tyrosine-protein kinase Srms (SRMS, Homo sapiens, UniProt Q9H3Y6); cell-free assay).
For Homeodomain-interacting protein kinase 2 (HIPK2, Homo sapiens, UniProt Q9H2X6); binding: remaining binding read 76%.
It gave 100% for remaining binding (Dual specificity protein kinase TTK (TTK, Homo sapiens, UniProt P33981); binding).
For cGMP-dependent protein kinase 2 (PRKG2, Homo sapiens, UniProt Q13237); binding: remaining binding read 96%.
The remaining binding was 71% (Mitogen-activated protein kinase kinase kinase 6 (MAP3K6, Homo sapiens, UniProt O95382); binding).
For Tyrosine-protein kinase JAK3, JH1 (JAK3, Homo sapiens, UniProt P52333); binding: remaining binding read 100%.
The remaining binding was 74% (Hepatocyte growth factor receptor (MET, Homo sapiens, UniProt P08581); cell-free assay).
Receptor tyrosine-protein kinase erbB-3 (ERBB3, Homo sapiens, UniProt P21860); binding — remaining binding: 83%.
It gave 95% for remaining binding (Cyclin-dependent kinase 9 (CDK9, Homo sapiens, UniProt P50750); binding).
It gave 100% for remaining binding (Protein kinase C delta type (PRKCD, Homo sapiens, UniProt Q05655); cell-free assay).
It gave 88% for remaining binding (Tyrosine-protein kinase Blk (BLK, Homo sapiens, UniProt P51451); binding).
Mitogen-activated protein kinase 12 (MAPK12, Homo sapiens, UniProt P53778); binding — remaining binding: 58%.
It gave 100% for remaining binding (Tyrosine-protein kinase ABL1, non-phosphorylated (ABL1, Homo sapiens, UniProt P00519, T315I); binding).
For Mitogen-activated protein kinase 11 (MAPK11, Homo sapiens, UniProt Q15759); binding: remaining binding read 100%.
Dual specificity mitogen-activated protein kinase kinase 7 (MAP2K7, Homo sapiens, UniProt O14733); binding — remaining binding: 93%.
The remaining binding was 91% (Dual specificity tyrosine-phosphorylation-regulated kinase 1A (DYRK1A, Homo sapiens, UniProt Q13627); cell-free assay).
It gave 100% for remaining binding (Protein-tyrosine kinase 6 (PTK6, Homo sapiens, UniProt Q13882); binding).
The remaining binding was 77% (Serine/threonine-protein kinase N1 (PKN1, Homo sapiens, UniProt Q16512); binding).
The remaining binding was 73% (Fibroblast growth factor receptor 4 (FGFR4, Homo sapiens, UniProt P22455); cell-free assay).

Sample 2 — concentration: 1 µM
SMILES: C[C@H]1CC[C@H](n2c3cnccc3c3cnc(Nc4ccc5c(n4)CCN(C(=O)CO)C5)nc32)CC1
The remaining binding was 100% (Tyrosine-protein kinase Tec (TEC, Homo sapiens, UniProt P42680); binding, competition with immobilised ligand).
The remaining binding was 100% (Bone morphogenetic protein receptor type-1A (BMPR1A, Homo sapiens, UniProt P36894); binding, competition with immobilised ligand).
The remaining binding was 49% (Proto-oncogene tyrosine-protein kinase receptor Ret (RET, Homo sapiens, UniProt P07949); cell-free assay, competition with immobilised ligand).
For Muscle, skeletal receptor tyrosine-protein kinase (MUSK, Homo sapiens, UniProt O15146); binding, competition with immobilised ligand: remaining binding read 67%.
The remaining binding was 97% (Activin receptor type-1 (ACVR1, Homo sapiens, UniProt Q04771); cell-free assay, competition with immobilised ligand).
The remaining binding was 100% (Serine/threonine-protein kinase 35 (STK35, Homo sapiens, UniProt Q8TDR2); binding, competition with immobilised ligand).
For Serine/threonine-protein kinase 3 (STK3, Homo sapiens, UniProt Q13188); binding: remaining binding read 70%.
It gave 100% for remaining binding (Serine/threonine-protein kinase MRCK alpha (CDC42BPA, Homo sapiens, UniProt Q5VT25); cell-free assay, competition with immobilised ligand).
It gave 44% for remaining binding (Vascular endothelial growth factor receptor 3 (FLT4, Homo sapiens, UniProt P35916); cell-free assay, competition with immobilised ligand).
The remaining binding was 89% (Ephrin type-B receptor 4 (EPHB4, Homo sapiens, UniProt P54760); cell-free assay, competition with immobilised ligand).

Sample 3 — host: human; medium: microsomes or S9; concentration: 2 µM; time: 0.5 h
For `CCN(Cc1nc(-c2cccs2)no1)C(=O)C(C)Oc1cc(C)c(Cl)c(C)c1` (stereo not drawn), the remaining compound was under 1%.
The remaining compound of `COc1ccc(N)cc1-n1nnnc1-n1cccn1` is reported as 54.3%.
For `CCc1cnc(N2CCN(C)C(C(=O)O)C2)nc1` (stereo not drawn), the remaining compound was over 99%.
With `CC(C)(NC(=O)C1CCC(NC(=O)C2CCCC2)CC1)c1noc(C(N)=O)n1` (stereo not drawn) the remaining compound was 74.5%.
`COCCCNC(=O)c1nc(CC(=O)Nc2ccc3cc[nH]c3c2)no1` gave a remaining compound of 77.5%.
For `CCC(=O)N1CCC(N(C(=O)COC)C2CCOCC2)CC1`, the remaining compound was 93.1%.
For `CC(C)n1c(=O)c2cn(S(=O)(=O)c3ccc(C4CCCCC4)cc3)nc2n(C(C)C)c1=O`, the remaining compound was over 100%.
For `Cc1ccc(F)c(N2CCC(NS(=O)(=O)c3cnc4c(c3)c(C)nn4C)CC2)c1`, the remaining compound was 1.86%.
`CCOC(=O)c1cc(CC)sc1NC(=O)COC` has a remaining compound of 0.201%.
`COC(=O)/C(=C(/F)OCC(=O)N(C)c1ccc(F)cc1)c1ccc(OC)cc1` gave a remaining compound of 17.7%.

Sample 4 — read-out: enzyme activity; mode: inhibitor; concentration: 0.5 µM; baseline: control
Structure (SMILES): Cc1cc(Nc2cc(N3CCN(C)CC3)nc(Sc3ccc(NC(=O)C4CC4)cc3)n2)[nH]n1
The remaining activity was 103% (Calcium/calmodulin-dependent protein kinase type 1 (CAMK1, Homo sapiens, UniProt Q14012)).
For Ephrin type-A receptor 6 (EPHA6, Homo sapiens, UniProt Q9UF33): remaining activity read 48.4%.
The remaining activity was 86% (Calcium/calmodulin-dependent protein kinase kinase 1 (CAMKK1, Homo sapiens, UniProt Q8N5S9)).
The remaining activity was 91% (Mitogen-activated protein kinase kinase kinase 20 (MAP3K20, Homo sapiens, UniProt Q9NYL2)).
For Tyrosine-protein kinase JAK1 (JAK1, Homo sapiens, UniProt P23458): remaining activity read 91.9%.
Dual specificity protein kinase CLK1 (CLK1, Homo sapiens, UniProt P49759) — remaining activity: 106%.
For Casein kinase I isoform epsilon (CSNK1E, Homo sapiens, UniProt P49674): remaining activity read 98.8%.
Protein kinase C theta type (PRKCQ, Homo sapiens, UniProt Q04759) — remaining activity: 86%.
For Serine/threonine-protein kinase Sgk2 (SGK2, Homo sapiens, UniProt Q9HBY8): remaining activity read 95.5%.
The remaining activity was 100% (Serine/threonine-protein kinase PAK 1 (PAK1, Homo sapiens, UniProt Q13153)).
Insulin-like growth factor 1 receptor (IGF1R, Homo sapiens, UniProt P08069) — remaining activity: 96.3%.
For Tyrosine-protein kinase Tec (TEC, Homo sapiens, UniProt P42680): remaining activity read 112%.
Serine/threonine-protein kinase PAK 6 (PAK6, Homo sapiens, UniProt Q9NQU5) — remaining activity: 104%.
The remaining activity was 94.4% (Cyclin-dependent kinase 2, with cyclin E (CDK2, Homo sapiens, UniProt P24941)).
Muscle, skeletal receptor tyrosine-protein kinase (MUSK, Homo sapiens, UniProt O15146) — remaining activity: 103%.
The remaining activity was 80% (Serine/threonine-protein kinase SIK2 (SIK2, Homo sapiens, UniProt Q9H0K1)).
The remaining activity was 92.6% (Casein kinase I isoform delta (CSNK1D, Homo sapiens, UniProt P48730)).
For Ribosomal protein S6 kinase alpha-3 (RPS6KA3, Homo sapiens, UniProt P51812): remaining activity read 82.1%.
For Dual specificity protein kinase CLK2 (CLK2, Homo sapiens, UniProt P49760): remaining activity read 88%.
The remaining activity was 96.4% (SRSF protein kinase 1 (SRPK1, Homo sapiens, UniProt Q96SB4)).
Ephrin type-A receptor 2 (EPHA2, Homo sapiens, UniProt P29317) — remaining activity: 34.4%.

Some of these lines once more (sample 4):
The remaining activity was 103% (Calcium/calmodulin-dependent protein kinase type 1 (CAMK1, Homo sapiens, UniProt Q14012)).
For Tyrosine-protein kinase JAK1 (JAK1, Homo sapiens, UniProt P23458): remaining activity read 91.9%.
For Tyrosine-protein kinase Tec (TEC, Homo sapiens, UniProt P42680): remaining activity read 112%.
The remaining activity was 80% (Serine/threonine-protein kinase SIK2 (SIK2, Homo sapiens, UniProt Q9H0K1)).
Dual specificity protein kinase CLK1 (CLK1, Homo sapiens, UniProt P49759) — remaining activity: 106%.
For Ephrin type-A receptor 6 (EPHA6, Homo sapiens, UniProt Q9UF33): remaining activity read 48.4%.
Insulin-like growth factor 1 receptor (IGF1R, Homo sapiens, UniProt P08069) — remaining activity: 96.3%.
